Published values pooled from the literature.
Compare with care: the assays were run in different laboratories.
Organism: Enterococcus faecalis

Structure (SMILES) = CN1C(=O)[C@@H]2NC(=O)[C@@H]3NC(=O)[C@@H](c4ccc(O)cc4)NC(=O)[C@H](NC(=O)C(NCc4cccc(-c5ccc(F)cc5)c4)c4ccc(O)cc4)Cc4c[nH]c5cc(ccc45)-c4cc3cc(c4O)Oc3ccc(cc3)C[C@H]1C(=O)N[C@@H](C(=O)O)c1ccc(O)c(c1)Oc1ccc2cc1 (stereo partly shown); test system = brain heart infusion medium; MIC = 16 to 32 µg/mL
Structure (SMILES) = O=C1c2ccccc2NC(c2ccc(Cl)c([N+](=O)[O-])c2)N1/N=C/c1ccc(Cl)c([N+](=O)[O-])c1 (stereo not shown); test = broth microdilution; test system = VRE 368, vancomycin-resistant, brain-heart infusion; conditions = 24 h; MIC = > 256 µg/mL
Structure (SMILES) = O=C(NC12CC3CC(CC(C3)C1)C2)c1cc2cc(Cl)ccc2[nH]1; test = microbial growth, broth dilution; MIC = > 64 µM
Structure (SMILES) = CN1C(=O)[C@@H]2NC(=O)[C@@H]3NC(=O)[C@@H](c4ccc(O)cc4)NC(=O)[C@H](NC(=O)C(N)c4ccc(O)cc4)Cc4c[nH]c5cc(ccc45)-c4cc3cc(c4O)Oc3ccc(cc3)C[C@H]1C(=O)N[C@@H](C(=O)O)c1ccc(O)c(c1)Oc1ccc2cc1 (stereo partly shown); test system = brain heart infusion medium; MIC = 8 to 16 µg/mL
Structure (SMILES) = CCCCCCCCCCCCCCCCSCC1OC(OC2C(N)CC(N)C(OC3OC(CN)C(O)CC3N)C2O)C(O)C(N)C1O (stereo not shown); test system = ATCC 29212; MIC = 18.8 µg/mL
Structure (SMILES) = CC(C)[C@H](NC(=O)[C@H](CCCCN)NC(=O)[C@H](CCCNC(=N)N)NC(=O)[C@@H](NC(=O)[C@H](C)NC(=O)[C@H](CC(N)=O)NC(=O)[C@H](CCCNC(=N)N)NC(=O)[C@@H](NC(=O)[C@H](CCCCN)NC(=O)[C@H](CCCCN)NC(=O)[C@@H](NC(=O)[C@@H](NC(=O)[C@H](CCCNC(=N)N)NC(=O)[C@H](CCCNC(=N)N)NC(=O)[C@H](Cc1c[nH]c2ccccc12)NC(=O)[C@H](Cc1c[nH]c2ccccc12)NC(=O)CN)[C@@H](C)O)C(C)C)C(C)C)C(C)C)C(=O)O; test system = clinical strain; conditions = 18 h, 37 °C; MIC = 16 µg/mL
Structure (SMILES) = COc1cccc(C2Nc3ccccc3C3=[O+][Cu-2]4([Cl])[O]c5c(cccc5OC)C=[N+]4N32)c1O (stereo not shown); test = broth microdilution; test system = vancomycin-resistant 368; conditions = 24 h; MIC = > 256 µg/mL
Structure (SMILES) = CCc1ccc([C@@H]2C[C@H](C(F)(F)F)n3ncc(C(=O)NCc4ccc(OC)cc4)c3N2)cc1; test = microbial growth, broth dilution; MIC = > 64 µM
Structure (SMILES) = O=[N+]([O-])c1ccc2c(c1)C=[N+]1N3C(=[O+][Cu-2]1([Cl])[O]2)c1ccccc1NC3c1cc([N+](=O)[O-])ccc1O (stereo not shown); test = broth microdilution; test system = vancomycin-resistant 368; conditions = 24 h; MIC = 256 µg/mL
Structure (SMILES) = CC[C@H](C)[C@H](NC(=O)[C@@H](Cc1ccccc1)NC)C(=O)N[C@@H](CO)C(=O)N[C@H](CCC(N)=O)C(=O)N[C@@H](C(=O)N[C@H](C(=O)N[C@@H](CO)C(=O)N[C@H]1C(=O)N[C@@H](C)C(=O)N[C@@H](C2CCCCC2)C(=O)N[C@@H]([C@@H](C)CC)C(=O)O[C@H]1C)[C@@H](C)CC)[C@@H](C)CC; test = broth microdilution; test system = ATCC 51299, vancomycin-resistant, brain heart infusion broth; conditions = 16 h, 37 °C; MIC = 1 µg/mL
Structure (SMILES) = Oc1ccccc1C1Nc2ccccc2C2=[O+][Cu-2]3([Cl])[O]c4ccccc4C=[N+]3N21 (stereo not shown); test = broth microdilution; test system = vancomycin-resistant 725 B; conditions = 24 h; MIC = 256 µg/mL
Structure (SMILES) = CC[C@H](C)[C@H](NC(=O)[C@@H](Cc1ccccc1)NC)C(=O)OC[C@H](N)C(=O)N[C@H](CCC(N)=O)C(=O)N[C@@H](C(=O)N[C@H](C(=O)OC[C@H](N)C(=O)N[C@H]1C(=O)N[C@@H](C)C(=O)N[C@@H](C2CCCCC2)C(=O)N[C@@H]([C@@H](C)CC)C(=O)O[C@H]1C)[C@@H](C)CC)[C@@H](C)CC; test = broth microdilution; test system = ATCC 51299, vancomycin-resistant, brain heart infusion broth; conditions = 16 h, 37 °C; MIC = 1 µg/mL
Structure (SMILES) = CNC(CC(C)C)C(=O)NC1C(=O)NC(CC(N)=O)C(=O)NC2C(=O)NC3C(=O)NC(C(=O)NC(C(=O)O)c4cc(O)cc(O)c4-c4cc3ccc4O)C(O)c3ccc(c(Cl)c3)Oc3cc2cc(c3OC2OC(CO)C(O)C(O)C2OC2CC(C)(NCc3ccc(-c4ccc(Cl)cc4)cc3)C(O)C(C)O2)Oc2ccc(cc2Cl)C1O (stereo not shown); test = broth microdilution; test system = BM 4166 VanA; MIC = 5 µg/mL
Structure (SMILES) = CN1C(=O)[C@@H]2NC(=O)[C@@H]3NC(=O)[C@@H](c4ccc(O)cc4)NC(=O)[C@H](NC(=O)C(NCc4ccccn4)c4ccc(O)cc4)Cc4c[nH]c5cc(ccc45)-c4cc3cc(c4O)Oc3ccc(cc3)C[C@H]1C(=O)N[C@@H](C(=O)O)c1ccc(O)c(c1)Oc1ccc2cc1 (stereo partly shown); test system = brain heart infusion medium; MIC = 16 µg/mL
Structure (SMILES) = CN[C@@H]1[C@H](O)[C@H](NC)[C@H]2O[C@]3(O)[C@H](O[C@@H]2[C@H]1O)O[C@H](C)C[C@@]3(O)CNCc1ccc(F)cc1; test system = ATCC 33186; MIC = 12.5 to 25 µg/mL
Structure (SMILES) = N=C(N)NCCC[C@H](NC(=O)[C@H](Cc1c[nH]c2ccccc12)NC(=O)[C@H](CCC(N)=O)NC(=O)[C@H](Cc1c[nH]c2ccccc12)NC(=O)[C@H](CCCNC(=N)N)NC(=O)[C@H](Cc1c[nH]c2ccccc12)NC(=O)[C@H](CCC(N)=O)NC(=O)[C@H](Cc1c[nH]c2ccccc12)NC(=O)[C@@H](N)CCCNC(=N)N)C(=O)NCCCC[C@H](NC(=O)[C@H](CCCNC(=N)N)NC(=O)[C@H](Cc1c[nH]c2ccccc12)NC(=O)[C@H](CCC(N)=O)NC(=O)[C@H](Cc1c[nH]c2ccccc12)NC(=O)[C@H](CCCNC(=N)N)NC(=O)[C@H](Cc1c[nH]c2ccccc12)NC(=O)[C@H](CCC(N)=O)NC(=O)[C@H](Cc1c[nH]c2ccccc12)NC(=O)[C@@H](N)CCCNC(=N)N)C(=O)NCCCCCC(N)=O; test = broth microdilution; test system = ATCC 29212; conditions = 24 h, 37 °C; MIC = 31 µM
Structure (SMILES) = O=C1c2ccccc2NC(c2ccc([N+](=O)[O-])cc2)N1/N=C/c1ccc([N+](=O)[O-])cc1 (stereo not shown); test = broth microdilution; test system = VRE 368, vancomycin-resistant, brain-heart infusion; conditions = 24 h; MIC = > 256 µg/mL
Structure (SMILES) = CC[C@@H](C)[C@@H](NC(=O)[C@@H](C)NC(=O)[C@@H](CCCCN)NC(=O)[C@@H](CC(C)C)NC(=O)[C@@H](C)NC(=O)[C@H](NC(=O)[C@@H](Cc1c[nH]cn1)NC(=O)[C@@H](CC(C)C)NC(=O)[C@H](NC(=O)[C@H](NC(=O)[C@@H](CCCCN)NC(=O)[C@@H](CCCCN)NC(=O)[C@@H](C)NC(=O)[C@@H](CO)NC(=O)[C@@H](CCCCN)NC(=O)[C@@H](Cc1ccccc1)NC(=O)[C@H](NC(=O)[C@@H](CCCCN)NC(=O)[C@@H](CC(C)C)NC(=O)[C@@H](Cc1ccccc1)NC(=O)[C@@H](CO)NC(=O)[C@@H](CCCCN)NC(=O)[C@@H](Cc1c[nH]c2ccccc12)NC(=O)[C@@H](CCCCN)NC(C)=O)[C@H](C)O)[C@H](C)O)C(C)C)[C@H](C)O)C(=O)N[C@H](CO)C(=O)N[C@H](CO)C(N)=O; test system = ATCC 29212; MIC = 32 µg/mL
Structure (SMILES) = COc1cc(/C=N/N2C(=O)c3ccccc3NC2c2cc(OC)c(O)c([N+](=O)[O-])c2)cc([N+](=O)[O-])c1O (stereo not shown); test = broth microdilution; test system = VRE 368, vancomycin-resistant, brain-heart infusion; conditions = 24 h; MIC = 256 µg/mL
Structure (SMILES) = Cc1cccc(-c2nc(Nc3ccncn3)c3c(C)csc3n2)n1; test = microbial growth, broth dilution; MIC = 16 µM
Structure (SMILES) = COc1cc(/C=N/N2C(=O)c3ccccc3NC2c2ccc(O)c(OC)c2)ccc1O (stereo not shown); test = broth microdilution; test system = VRE 368, vancomycin-resistant, brain-heart infusion; conditions = 24 h; MIC = > 256 µg/mL
Structure (SMILES) = CN1C(=O)[C@@H]2NC(=O)[C@@H]3NC(=O)[C@@H](c4ccc(O)cc4)NC(=O)[C@H](NC(=O)C(NCc4ccsc4)c4ccc(O)cc4)Cc4c[nH]c5cc(ccc45)-c4cc3cc(c4O)Oc3ccc(cc3)C[C@H]1C(=O)N[C@@H](C(=O)O)c1ccc(O)c(c1)Oc1ccc2cc1 (stereo partly shown); test system = brain heart infusion medium; MIC = 4 µg/mL
Structure (SMILES) = c1cc2c(s1)CCOC21CCN(Cc2ccc3c(c2)OCCO3)CC1; test = microbial growth, broth dilution; MIC = 64 µM
Structure (SMILES) = CN1C(=O)[C@@H]2NC(=O)[C@@H]3NC(=O)[C@@H](c4ccc(O)cc4)NC(=O)[C@H](NC(=O)C(NCc4ccc(B(O)O)cc4)c4ccc(O)cc4)Cc4c[nH]c5cc(ccc45)-c4cc3cc(c4O)Oc3ccc(cc3)C[C@H]1C(=O)N[C@@H](C(=O)O)c1ccc(O)c(c1)Oc1ccc2cc1 (stereo partly shown); test system = brain heart infusion medium; MIC = 8 µg/mL
Structure (SMILES) = Cc1ccc2nc(C)c(C(=O)NCc3cccs3)n2c1; test = microbial growth, broth dilution; MIC = > 64 µM
Structure (SMILES) = CCCCCCCCCCCNC(C(=O)N[C@@H]1Cc2c[nH]c3cc(ccc23)-c2cc3cc(c2O)Oc2ccc(cc2)C[C@H]2C(=O)N[C@@H](C(=O)O)c4ccc(O)c(c4)Oc4ccc(cc4)[C@@H](NC(=O)[C@@H]3NC(=O)[C@@H](c3ccc(O)cc3)NC1=O)C(=O)N2C)c1ccc(O)cc1 (stereo partly shown); test system = brain heart infusion medium; MIC = 4 to 8 µg/mL
Structure (SMILES) = CC(C)[C@H](NC(=O)[C@H](CCCNC(=N)N)NC(=O)[C@H](CCCNC(=N)N)NC(=O)[C@@H](NC(=O)[C@H](C)NC(=O)[C@H](CC(N)=O)NC(=O)[C@H](CCCNC(=N)N)NC(=O)[C@@H](NC(=O)[C@H](CCCNC(=N)N)NC(=O)[C@H](CCCNC(=N)N)NC(=O)[C@@H](NC(=O)[C@@H](NC(=O)[C@H](CCCNC(=N)N)NC(=O)[C@H](CCCNC(=N)N)NC(=O)[C@H](Cc1c[nH]c2ccccc12)NC(=O)[C@H](Cc1c[nH]c2ccccc12)NC(=O)CN)[C@@H](C)O)C(C)C)C(C)C)C(C)C)C(=O)O; test system = clinical strain; conditions = 18 h, 37 °C; MIC = 32 µg/mL
Structure (SMILES) = CN1C(=O)[C@@H]2NC(=O)[C@@H]3NC(=O)[C@@H](c4ccc(O)cc4)NC(=O)[C@H](NC(=O)C(NCc4cc(Cl)cc(Cl)c4Cl)c4ccc(O)cc4)Cc4c[nH]c5cc(ccc45)-c4cc3cc(c4O)Oc3ccc(cc3)C[C@H]1C(=O)N[C@@H](C(=O)O)c1ccc(O)c(c1)Oc1ccc2cc1 (stereo partly shown); test system = brain heart infusion medium; MIC = 8 µg/mL
Structure (SMILES) = CC1=CC2(C)C(=C(C)C3C4CC(C)CC(C)C4C4Oc5ccc(cc5)CC5(O)NC(=O)C(=C(O)C2C43)C5Nc2ncnc3c2ncn3C2OC(CO)C(O)C2O)C1C (stereo not shown); test = microbial growth, broth dilution; test system = ATCC51299; conditions = drug-resistant strain; MIC = 12.5 µM
Structure (SMILES) = CN1C(=O)[C@@H]2NC(=O)[C@@H]3NC(=O)[C@@H](c4ccc(O)cc4)NC(=O)[C@H](NC(=O)C(N)c4ccc(O)cc4)Cc4c[nH]c5cc(ccc45)-c4cc3cc(c4O)Oc3ccc(cc3)C[C@H]1C(=O)N[C@@H](C(=O)NCCC[N+](C)(C)C)c1ccc(O)c(c1)Oc1ccc2cc1 (stereo partly shown); test system = brain heart infusion medium; MIC = 16 µg/mL
Structure (SMILES) = CN[C@@H]1[C@H](O)[C@H](NC)[C@H]2O[C@]3(O)[C@H](O[C@@H]2[C@H]1O)O[C@H](C)C[C@@]3(O)CNCc1ccc(OC(F)(F)F)cc1; test system = ATCC 33186; MIC = 25 to 50 µg/mL

A few entries again:
Structure (SMILES) = CNC(CC(C)C)C(=O)NC1C(=O)NC(CC(N)=O)C(=O)NC2C(=O)NC3C(=O)NC(C(=O)NC(C(=O)O)c4cc(O)cc(O)c4-c4cc3ccc4O)C(O)c3ccc(c(Cl)c3)Oc3cc2cc(c3OC2OC(CO)C(O)C(O)C2OC2CC(C)(NCc3ccc(-c4ccc(Cl)cc4)cc3)C(O)C(C)O2)Oc2ccc(cc2Cl)C1O (stereo not shown); test = broth microdilution; test system = BM 4166 VanA; MIC = 5 µg/mL
Structure (SMILES) = CN[C@@H]1[C@H](O)[C@H](NC)[C@H]2O[C@]3(O)[C@H](O[C@@H]2[C@H]1O)O[C@H](C)C[C@@]3(O)CNCc1ccc(OC(F)(F)F)cc1; test system = ATCC 33186; MIC = 25 to 50 µg/mL
Structure (SMILES) = CN[C@@H]1[C@H](O)[C@H](NC)[C@H]2O[C@]3(O)[C@H](O[C@@H]2[C@H]1O)O[C@H](C)C[C@@]3(O)CNCc1ccc(F)cc1; test system = ATCC 33186; MIC = 12.5 to 25 µg/mL
Structure (SMILES) = CC[C@H](C)[C@H](NC(=O)[C@@H](Cc1ccccc1)NC)C(=O)OC[C@H](N)C(=O)N[C@H](CCC(N)=O)C(=O)N[C@@H](C(=O)N[C@H](C(=O)OC[C@H](N)C(=O)N[C@H]1C(=O)N[C@@H](C)C(=O)N[C@@H](C2CCCCC2)C(=O)N[C@@H]([C@@H](C)CC)C(=O)O[C@H]1C)[C@@H](C)CC)[C@@H](C)CC; test = broth microdilution; test system = ATCC 51299, vancomycin-resistant, brain heart infusion broth; conditions = 16 h, 37 °C; MIC = 1 µg/mL
